# Published values gathered from unrelated publications.
# pIC50: −log10 of the molar value.
# Organism: Staphylococcus aureus
SMILES,test,system,setting,how to read,quantity,result
O=C1C=CC(=O)N1CCCCOCc1cn(CCCCN2C(=O)C=CC2=O)nn1,"growth, turbidity OD600",,24 h,,pIC50,< 4.00
CC(C)[C@@H](NC(=O)[C@H](CC1CCCCC1)NC(=O)[C@@H](Cc1c[nH]c2ccccc12)NC(=O)[C@@H](N)CCCN)C(=O)N[C@H](Cc1ccccc1)C(=O)N[C@@H](Cc1cn(Cc2ccccc2)cn1)C(N)=O,,"ATCC 33591, methicillin-resistant",,,IC50,> 20 µg/mL
C=C(C)C(=O)NCCCCCCCCCCOCc1cn(CCCCCCCCCCNC(=O)C(=C)C)nn1,"growth, turbidity OD600",,24 h,,pIC50,< 4.00
O=C(O)c1ccccc(=O)c1O,"microbial growth, broth dilution",ATCC29213,,,MIC80,19.8 µM
CC[C@H](C)[C@H](NC(=O)[C@H](CC1CCCCC1)NC(=O)[C@H](Cc1c[nH]c2ccccc12)NC(=O)[C@@H](N)CCCN)C(=O)N[C@H](Cc1ccccc1)C(=O)N[C@@H](Cc1cn(Cc2ccccc2)cn1)C(N)=O,bacterial growth,ATCC 29213,,,IC50,> 20 µg/mL
COc1c(C)c(OC(=O)c2ccccc2)c(C)c(OC(=O)c2ccccc2)c1C(=O)/C=C/c1ccccc1,"microbial growth, well diffusion",ATCC25923,5 µg/mL,,inhibition zone,9 mm
C=C(NC(=O)c1csc(-c2nc3c(cc2O)-c2nc(cs2)C(=O)NC(C(C)O)C(=O)NC(=C(C)OC)c2nc(cs2)C(=O)NC2c4nc(cs4)C(=O)NC(COC(=O)c4c5c6c(cccc6n4O)COC(=O)C(OC4CC(C)(O)C(N(C)C)C(C)O4)C2OC5)c2nc-3cs2)n1)C(N)=O (stereo not shown),,MRSA ATCC 43300,2 × MIC,,post-antibiotic effect,~1.1 h
N=C(N)NCCC[C@@H]1NC(=O)[C@H](CCCNC(=N)N)NC(=O)[C@@H](C(c2ccccc2)c2ccccc2)NC(=O)[C@H](Cc2c[nH]c3ccccc23)NC(=O)[C@@H](C(c2ccccc2)c2ccccc2)NC(=O)[C@@H](CCCNC(=N)N)NC(=O)[C@@H](CCCNC(=N)N)NC1=O,,MRSA ATCC BAA-1556,"MIC, 24 h, pre-formed biofilm",,biofilm reduction,41 to 49%
COc1c(C)c(OS(=O)(=O)c2ccccc2)c(C)c2c1C(=O)CC(c1ccccc1)O2 (stereo not shown),"microbial killing, broth dilution",ATCC25923,,,MBC,> 5000 µg/mL
C=CC(=O)NCCCCCCOCc1cn(CCCCCCNC(=O)C=C)n[n+]1C,"growth, turbidity OD600",,24 h,,pIC50,< 4.00
CC(CCCOC(=O)CCC[N+](C)(C)C)C1CCC2C3CCC4CC(OC(=O)CCC[N+](C)(C)C)CCC4(C)C3CCC12C (stereo not shown),"microbial growth, disc diffusion",ATCC29213,"125 µg/disc, 24 h",,inhibition zone,15 mm
C=CS(=O)(=O)NCCCCOCc1cn(CCCCNS(=O)(=O)C=C)n[n+]1C,"growth, turbidity OD600",,24 h,,pIC50,< 4.00
CC(CCCOC(=O)CCC[N+](C)(C)C)C1CCC2C3C(OC(=O)CCC[N+](C)(C)C)CC4CC(OC(=O)CCC[N+](C)(C)C)CCC4(C)C3CC(OC(=O)CCC[N+](C)(C)C)C12C (stereo not shown),"microbial growth, disc diffusion",ATCC29213,"31.2 µg/disc, 24 h",,inhibition zone,10 mm
C=C(C)C(=O)NCCCCOCc1cn(CCCCNC(=O)C(=C)C)nn1,"growth, turbidity OD600",,24 h,,pIC50,< 4.00
COc1cc2c(cc1OC)C1Cc3ccc(OC)c(OC)c3C[NH+]1CC2.[Cl][Fe-]([Cl])([Cl])[Cl] (stereo not shown),,,"24 h, 37 °C",,MBC,> 1600 µM
CC[C@H](C)[C@H](NC(=O)[C@H](CCCN)NC(=O)[C@H](CC(N)=O)NC(=O)[C@H](Cc1c[nH]c2ccccc12)NC(=O)[C@H](Cc1ccccc1)NC(=O)[C@H](CCCN)NC(=O)[C@H](CCCCNC(=N)N)NC(=O)[C@H](CC(C)C)NC(=O)[C@H](Cc1c[nH]c2ccccc12)NC(=O)[C@H](CCCN)NC(=O)[C@H](CCCCNC(=N)N)NC(=O)[C@H](CC(C)C)NC(=O)CNC(C)=O)C(=O)N[C@@H](CCCN)C(=O)N[C@@H](CCCCNC(=N)N)C(N)=O,,,"concentration not given, with: NaCl 150 mM",relative to: no added salt,MIC fold change,4 fold
O=c1c(O)ccc(-c2ccccc2)cc1O,"microbial growth, broth dilution",ATCC29213,,,MIC80,19.8 µM
CCCCCCCCCC(=O)Oc1c(C)c(OC)c2c(c1C)OC(=O)C(CCCCCCCC)C2(O)C=Cc1ccccc1 (stereo not shown),"microbial killing, broth dilution",ATCC25923,,,MBC,> 5000 µg/mL
C=CS(=O)(=O)NCCCCCCCCOCc1cn(CCCCCCCCNS(=O)(=O)C=C)nn1,"growth, turbidity OD600",,24 h,,pIC50,< 4.00
CC(=O)N[C@@H](CCCCN)C(=O)N1CCC[C@H]1C(=O)N[C@H](C(=O)N[C@@H](Cc1ccccc1)C(=O)N[C@@H](CCC(N)=O)C(=O)N[C@@H](Cc1ccccc1)C(=O)N[C@@H](CC(C)C)C(=O)N[C@@H](Cc1ccccc1)C(=O)N[C@@H](Cc1c[nH]cn1)C(=O)N[C@@H](CCC(=O)O)C(N)=O)C(C)C,flow cytometry,"USA300, hydrogel","concentration not given, 4 h, pH 5.5, 37 °C",,PI-permeable cells,30.2%
C=CS(=O)(=O)NCCCCCCCCOCc1cn(CCCCCCCCNS(=O)(=O)C=C)n[n+]1C,"growth, turbidity OD600",,24 h,,pIC50,< 4.00
CC(C)C1=CC2=CCC3C(C)(C(=O)OCCC[N+](C)(C)C)CCCC3(C)C2CC1 (stereo not shown),"microbial growth, disc diffusion",ATCC29213,"31.2 µg/disc, 24 h",,inhibition zone,15 mm
O=C(Oc1cccccc1=O)c1cccc(Cl)c1,"microbial growth, broth dilution",ATCC29213,,,MIC80,18.2 µM
CCCCCCCC(=O)Oc1c(C)c(OC)c2c(c1C)OC(=O)[C@@H](CCCCCC)[C@]2(O)/C=C/c1ccccc1 (racemic),"microbial killing, broth dilution",ATCC25923,,,MBC,> 5000 µg/mL
C=C1CN(C(=N)N)CC2Nc3c(F)cc(Br)cc3C12CCNS(=O)(=O)c1ccc(Cl)cc1.O=C(O)C(F)(F)F (stereo not shown),,MRSA ATCC BAA-44,with: amoxicillin/clavulanic acid,,minimum resensitizing concentration,2 µg/mL
CC[C@H](C)[C@H](NC(=O)[C@H](CC1CCCCC1)NC(=O)[C@H]1CCCN1C(=O)[C@@H](N)CCCN)C(=O)N[C@H](Cc1ccccc1)C(=O)N[C@@H](Cc1cn(Cc2ccccc2)cn1)C(N)=O,bacterial growth,ATCC 29213,,,IC50,> 20 µg/mL
COc1ccc2cc3[n+](cc2c1OC)CCc1cc2c(cc1-3)OCO2.[Cl][Fe-]([Cl])([Cl])[Cl],,,,,MBC/MIC ratio,2
CC(CCCOC(=O)CCC[N+](C)(C)C)C1CCC2C3CCC4CC(OC(=O)CCC[N+](C)(C)C)CCC4(C)C3CC(OC(=O)CCC[N+](C)(C)C)C12C (stereo not shown),"microbial growth, disc diffusion",ATCC29213,"125 µg/disc, 24 h",,inhibition zone,23 mm
CC[C@H](C)[C@H](NC(=O)[C@H](CC1CCCCC1)NC(=O)[C@@H](Cc1ccccc1)NC(=O)[C@@H](N)CCCN)C(=O)N[C@H](Cc1ccccc1)C(=O)N[C@@H](Cc1cn(Cc2ccccc2)cn1)C(N)=O,bacterial growth,ATCC 29213,,,IC50,> 20 µg/mL
C[n+]1nn(CCCCCCCCN2C(=O)C=CC2=O)cc1COCCCCCCCCN1C(=O)C=CC1=O,"growth, turbidity OD600",,24 h,,pIC50,< 4.00
CC[C@H](C)[C@H](NC(=O)[C@H](CC1CCCCC1)NC(=O)[C@@H](NC(=O)[C@@H](N)CCCN)c1ccccc1)C(=O)N[C@H](Cc1ccccc1)C(=O)N[C@@H](Cc1cn(Cc2ccccc2)cn1)C(N)=O,bacterial growth,ATCC 29213,,,IC50,> 20 µg/mL
CCCC(=O)Oc1c(C)c(OC)c2c(/C=C/c3ccccc3)c(CC)c(=O)oc2c1C,"microbial killing, broth dilution",ATCC25923,,,MBC,> 5000 µg/mL
CC(C)c1ccc2c(c1)CCC1C(C)(CN(CC(O)C[N+](C)(C)C)CC(O)C[N+](C)(C)C)CCCC21C (stereo not shown),"microbial growth, disc diffusion",ATCC29213,"15.6 µg/disc, 24 h",,inhibition zone,7 mm
CC[C@H](C)[C@H](NC(=O)[C@H](CC1CCCCC1)NC(=O)[C@H](CC(C)C)NC(=O)[C@@H](N)CCCN)C(=O)N[C@H](Cc1ccccc1)C(=O)N[C@@H](Cc1cn(Cc2ccccc2)cn1)C(N)=O,,"ATCC 33591, methicillin-resistant",,,IC50,> 20 µg/mL
